{"data": "Published values from different studies", "Alpha-amylase": "Alpha-amylase (Bos taurus, UniProt Q3MHH8)", "FFAR4": "Free fatty acid receptor 4 (FFAR4, Homo sapiens, UniProt Q5NUL3)", "note": "Lines come from different studies, so protocols differ. Several values in a cell are separate wells, animals, samples, runs or records. Numbers after ± are the reported error."}
{"SMILES": "Cn1cncc1C1=CN(c2ncnc3[nH]cnc23)CCS1", "target": "PRKCG (Homo sapiens, UniProt P05129)", "assay": "enzyme activity", "setting": "2 µM", "inhibition": "92.8%"}
{"SMILES": "CC1=NN(c2ccccn2)C(=O)C1=NNc1ccc(S(N)(=O)=O)cc1", "target": "Alpha-amylase", "assay": "enzyme activity, inhibitor, glucose oxidase", "setting": "50 µg/mL, added: dextrin", "inhibition": "11.1%"}
{"SMILES": "O=C(O)CCCCCCCNc1cc(=O)[nH]c(=O)[nH]1", "target": "FFAR4", "assay": "antagonist, β-arrestin recruitment", "test system": "CHO cells", "setting": "10 µM", "inhibition": "23 ± 7%"}
{"SMILES": "CC1=NN(c2cccc([N+](=O)[O-])c2)C(=O)C1=NNc1ccc(S(N)(=O)=O)cc1", "target": "Alpha-amylase", "assay": "enzyme activity, inhibitor, glucose oxidase", "setting": "200 µg/mL, added: dextrin", "inhibition": "10.4%"}
{"SMILES": "Cn1cc(-c2cnc3ccc(NC(=O)Nc4ccc(F)c(Br)c4)cc3n2)cn1", "target": "MAP3K12 (Homo sapiens, UniProt Q12852)", "assay": "kinase binding, KiNativ profiling, measured: Lys2 peptide", "test system": "PANC-1 lysate", "setting": "2.5 µM", "inhibition": "37.9%"}
{"SMILES": "CC1=NN(c2ccc(F)cc2)C(=O)C1=NNc1ccc(S(N)(=O)=O)cc1", "target": "Alpha-amylase", "assay": "enzyme activity, inhibitor, glucose oxidase", "setting": "10 µg/mL, added: dextrin", "inhibition": "6.5259 ± 0.00019%"}
{"SMILES": "O=c1[nH]c(NCCc2ccc(Br)cc2)c(Br)c(=O)[nH]1", "target": "FFAR4", "assay": "antagonist, β-arrestin recruitment", "test system": "CHO cells", "setting": "10 µM, added: 4 µM TUG-891", "inhibition": "14 ± 5%"}
{"SMILES": "CC1=NNC(=S)NC(=O)C1/N=N/c1ccc(S(N)(=O)=O)cc1 (stereo not drawn)", "target": "Alpha-amylase", "assay": "enzyme activity, inhibitor, glucose oxidase", "setting": "500 µg/mL, added: dextrin", "inhibition": "19.6%"}
{"SMILES": "[2H]c1cc(C)c(NC(=O)c2cnc(Nc3cc(N4CCCCC4)nc(C)n3)s2)c(Cl)c1", "target": "ABL2 (Homo sapiens, UniProt P42684)", "setting": "0.0001 µM", "inhibition": "> 50%"}
{"SMILES": "CC1=NOC(=O)C1=NNc1ccc(S(N)(=O)=O)cc1", "target": "Alpha-amylase", "assay": "enzyme activity, inhibitor, glucose oxidase", "setting": "500 µg/mL, added: dextrin", "inhibition": "36.3%"}
{"SMILES": "O=c1cc(NCCc2ccc(Cl)cc2Cl)[nH]c(=O)[nH]1", "target": "FFAR4", "assay": "antagonist, β-arrestin recruitment", "test system": "CHO cells", "setting": "10 µM", "inhibition": "6 ± 6%"}
{"SMILES": "CC[C@@H]1[C@H](F)C(=O)N[C@@H]1COc1nccc2cc(C(N)=O)c(OC)cc12", "target": "MAP3K21 (Homo sapiens, UniProt Q5TCX8)", "assay": "ATP-site probe binding, ActivX profiling, measured: MLK4", "test system": "THP-1 cell lysate", "setting": "0.04 mM, Lys2 site", "inhibition": "2%"}
{"SMILES": "O=c1cc(NCCCOc2ccccc2)[nH]c(=O)[nH]1", "target": "FFAR4", "assay": "antagonist, β-arrestin recruitment", "test system": "CHO cells", "setting": "10 µM", "inhibition": "16 ± 6%"}
{"SMILES": "O=C(Nc1cccc2c(=O)cc(-c3nnn[nH]3)oc12)c1ccc(OCCCCc2ccccc2)cc1", "target": "Volume-regulated anion channel subunit LRRC8C, part LRRC8A IL1 chimera (LRRC8C, Homo sapiens, UniProt Q8TDW0)", "assay": "ion current, inhibitor, whole-cell patch clamp", "test system": "HCT LRRC8-/- cells, transfected", "setting": "1 µM, low ionic strength swelling, +100 mV", "inhibition": "17.9% and 52.8% and 61.6% and 38.8%"}
{"SMILES": "CCCCCCCCCNc1cc(=O)n(C)c(=O)[nH]1", "target": "FFAR4", "assay": "antagonist, β-arrestin recruitment", "test system": "CHO cells", "setting": "10 µM, added: 4 µM TUG-891", "inhibition": "17 ± 2%"}
{"SMILES": "CC1=NN(c2ccccc2)C(=O)C1=NNc1ccc(S(N)(=O)=O)cc1", "target": "Alpha-amylase", "assay": "enzyme activity, inhibitor, glucose oxidase", "setting": "500 µg/mL, added: dextrin", "inhibition": "27.4%"}
{"SMILES": "CCCCCCCNc1[nH]c(=O)[nH]c(=O)c1N=O", "target": "FFAR4", "assay": "antagonist, β-arrestin recruitment", "test system": "CHO cells", "setting": "10 µM, added: 4 µM TUG-891", "inhibition": "27 ± 5%"}
{"SMILES": "C[C@H]1[C@H](OC(=O)CCC(=O)O)O[C@@H]2O[C@@]3(C)CC[C@H]4[C@H](C)CC[C@@H]1[C@@]24OO3", "target": "Non-structural polyprotein pORF1, helicase domain (Hepatitis E virus genotype 1, UniProt P33424)", "assay": "ATPase activity, inhibitor, colorimetric", "setting": "78 µM, added: ATP 100 µM", "inhibition": "55.3%"}
{"note": "Repeated from above:"}
{"SMILES": "CC1=NNC(=S)NC(=O)C1/N=N/c1ccc(S(N)(=O)=O)cc1 (stereo not drawn)", "target": "Alpha-amylase", "assay": "enzyme activity, inhibitor, glucose oxidase", "setting": "500 µg/mL, added: dextrin", "inhibition": "19.6%"}
